Measured values collected from several papers.
Parts stem from different laboratories: compare values within a part only. Changes are numbered by the printed parent chain.

Series 1 — technique: DHFR PCA, deep sequencing; matrix: yeast; added: (+)-ABA 0.0091 µM; relative to: wild-type fitted maximum; reading: higher = stronger binding
Target: ABI1, truncated, D143A, DHFR fusion (Arabidopsis thaliana)
Setting: methotrexate growth selection, single substitutions
Starting sequence: PYL1, truncated, DHFR fusion (Arabidopsis thaliana); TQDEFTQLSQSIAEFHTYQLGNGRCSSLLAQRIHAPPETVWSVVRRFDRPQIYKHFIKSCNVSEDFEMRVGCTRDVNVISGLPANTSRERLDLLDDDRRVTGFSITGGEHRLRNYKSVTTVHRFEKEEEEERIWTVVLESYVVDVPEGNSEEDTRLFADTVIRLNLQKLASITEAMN; partner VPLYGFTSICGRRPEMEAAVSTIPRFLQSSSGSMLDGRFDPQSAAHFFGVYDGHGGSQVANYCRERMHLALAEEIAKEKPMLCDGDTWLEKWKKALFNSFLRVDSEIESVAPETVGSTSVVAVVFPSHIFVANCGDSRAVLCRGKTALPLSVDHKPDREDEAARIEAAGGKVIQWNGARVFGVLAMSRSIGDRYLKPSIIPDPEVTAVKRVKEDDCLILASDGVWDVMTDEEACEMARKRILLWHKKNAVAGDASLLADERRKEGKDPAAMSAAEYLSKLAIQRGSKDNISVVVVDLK
Under “relative binding score”, `Y53L` is recorded as -1.4%.
`A84P` — result for “relative binding score”: 29.5%.
Under “relative binding score”, `T120R` is recorded as -0.7%.
`P36S` — result for “relative binding score”: 22%.
`E139Y`: “relative binding score” -0.922%.
Under “relative binding score”, `S63P` is recorded as 44.8%.
For `D159G`, “relative binding score” read 1.84%.
For `H55R`, “relative binding score” read 16.5%.
For `T86E`, “relative binding score” read 4.09%.
`P83N` — result for “relative binding score”: 14.1%.
Under “relative binding score”, `L91M` is recorded as 7.71%.
`L156D` — result for “relative binding score”: -0.366%.
For `M68N`, “relative binding score” read -0.332%.
`P36F`: “relative binding score” -0.409%.
`T135G` — result for “relative binding score”: -8.03%.
`L20F` — result for “relative binding score”: 7.62%.
`Q2W`: “relative binding score” 52.6%.

Series 2 — technique: RNA Bind-n-Seq; form: RNA; matrix: in vitro; tested at: 365 nM; relative to: no-protein control; reading: higher = stronger binding
Target: RNA binding protein fox-1 homolog 2, RRM domain, GST-SBP tag (RBFOX2, Homo sapiens, UniProt O43251-10, residues 100-194)
Setting: natural RNA segment, single round, ends assumed
Shared flanks, not repeated: GGGAGUUCUACAGUCCGACGAUC … UGGAAUUCUCGGGUGCCAA
Construct (chain): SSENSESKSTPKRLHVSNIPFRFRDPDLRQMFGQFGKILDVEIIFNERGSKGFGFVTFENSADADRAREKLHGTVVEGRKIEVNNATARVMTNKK
Under “RBNS enrichment (R)”, `CUCAGCCUCCCUCCCAGGGCUCCAGAGCUCAGCUCUUCCUUUUCUAGAAGCAUGUGAAGAUGCCCAAGAGCCUGGAGACAUUGCCAUCCUUCCUACAGAAACUGUUUCUC` is recorded as 1.36.
`UAACAUCCUUCCAAUUUUAUUCACAUAUAAUGGGAAAUUUUGAAUUGCCAGUUUGAAGACUGUUCUCCUAAAGUGUUCAACCUGCACUUCUUACAACCAAGGUAGUUUGU`: “RBNS enrichment (R)” 0.308.
Under “RBNS enrichment (R)”, `CCUGCAGGGACCUGAGCUUUGCUACCCAACCAGAUUCCUCAUAGAGAUUCCUAAUCACUAGUUUCUUGUAUUCAUAAACUCAGAGAUACAGAGGGCUUGGUUUGAAGUUG` is recorded as 0.52.
`UGCUUUAAAAAAAAAAAUUUUUUUUUUUUAACGAAUUGCUGUUCUGUCCAGAGGUUUUUAAAACUGGUGCAUUCACAGCAAAAAGGGAUUCUGUAGCUUUAACUUGUAAA` — result for “RBNS enrichment (R)”: 0.685.
`AGAAGAUGUCUGAGGUCCUCCUGAGCCCUGAAAUCUUGAUAAUCAGGAAUACCCAGGGUGGUGGGACUGACAUCAGGGGAGUGGCGUCUGCCCACCCCCCACCCUGUCCC` — result for “RBNS enrichment (R)”: 0.184.
`AACAUAAAAGGAAAGCUGGCAGUGGGUCUUGGUAAUAUAUGAACUAUAUUAGAGUGCCAGAAAAGGAGACCUCAGAAGUUAAGCAUAGGUUGCCAAUCUGCUACAAUUAU`: “RBNS enrichment (R)” 1.02.
`AUGCAUGUAUUAUGCAUUGGAAAGGUAUUUUUUUUAAGUUCUGUUGGCUAGCUAUGGUUUUCAGUACAUUUCCUACUUUAAGAGUAAUUACUGACAAAUAUGUAUUUCCU`: “RBNS enrichment (R)” 0.925.
For `CAGAUUCUGGGUGGUCUAUGUGACCAUUUGUCUCGUAUCCAAAAACCCCGGGGCUAUUGGAACCCUUCCAACACUUUUUCCUUUGUCAUAGACAAGUUUAUAUAUAACUU`, “RBNS enrichment (R)” read 0.26.

Series 3 — target: CCNB2, cyclin fold, Cln2 fusion (human); technique: yeast growth competition, sequencing; matrix: yeast; setting: weak parent motif; relative to: not given; reading: higher = stronger binding
Starting sequence: RB1 docking peptide (human); PKPLKKLRFDIEG; partner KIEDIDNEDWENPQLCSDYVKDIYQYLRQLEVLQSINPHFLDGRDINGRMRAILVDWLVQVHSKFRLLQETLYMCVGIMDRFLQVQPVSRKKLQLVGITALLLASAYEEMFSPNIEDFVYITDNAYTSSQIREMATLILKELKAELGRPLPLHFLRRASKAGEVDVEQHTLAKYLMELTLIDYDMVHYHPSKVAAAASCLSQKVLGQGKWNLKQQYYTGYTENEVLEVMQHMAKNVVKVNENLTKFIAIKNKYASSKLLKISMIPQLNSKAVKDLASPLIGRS
For `F9K`, “normalised enrichment score” read -0.00693.
For `G13Y`, “normalised enrichment score” read -0.146.
Under “normalised enrichment score”, `E12N` is recorded as 0.846.
`K5L` — result for “normalised enrichment score”: -0.277.
For `E12F`, “normalised enrichment score” read 1.08.
For `F9S`, “normalised enrichment score” read 0.2.
`P3S` — result for “normalised enrichment score”: 0.725.
Under “normalised enrichment score”, `K5A L7A` is recorded as 0.281.
`P3K` — result for “normalised enrichment score”: 0.451.
`K6I`: “normalised enrichment score” 0.148.
Under “normalised enrichment score”, `P1W` is recorded as 1.07.
`E12H`: “normalised enrichment score” -0.133.
`P3G` — result for “normalised enrichment score”: 0.617.
`R8D`: “normalised enrichment score” 0.194.
For `P3V`, “normalised enrichment score” read 0.0525.
For `P3A`, “normalised enrichment score” read 0.607.

Single results of other studies
The fold induction of `PhoQ, residues 284 288 289 292 302 303 SSTLSG` is reported as 0.839 (PhoP, residues 12 14 15 18 19 LFHKL (Escherichia coli, UniProt P23836); Sort-seq, refers to: YFP reporter; E. coli; PhoQ-PhoP variant library, added: 10 µM Mg2+; relative to: high Mg2+ state, higher = stronger signaling).

For quick reference, copied from above (series 1):
Under “relative binding score”, `Y53L` is recorded as -1.4%.
`A84P` — result for “relative binding score”: 29.5%.
Under “relative binding score”, `T120R` is recorded as -0.7%.
`P36S` — result for “relative binding score”: 22%.
`E139Y`: “relative binding score” -0.922%.
Under “relative binding score”, `S63P` is recorded as 44.8%.
For `D159G`, “relative binding score” read 1.84%.
